Published values from different studies.
A part holds a random share of what one study measured. Positions count from the first letter of the parent shown.

Sample 1
Target: Histone acetyltransferase KAT6A, winged helix 1, GST fusion (KAT6A, Homo sapiens, UniProt Q92794, residues 1-85)
Method: protein binding microarray
Molecule type: double-stranded DNA, one strand shown
Sample: in vitro
Tested at: not given
Notes: 8-mer, flanks averaged, mean of 2 arrays, mostly near background
Relative to: not given
Reading: higher = stronger binding
Construct (chain): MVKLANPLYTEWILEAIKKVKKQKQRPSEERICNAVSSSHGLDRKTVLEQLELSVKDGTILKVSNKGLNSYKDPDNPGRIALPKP
`GCTAGGCA` gave an E-score of -0.00555.
`ACTGCCAC` gave an E-score of -0.141.
`GGGGTGCA` has an E-score of 0.0205.
`CTCGTCTA` has an E-score of -0.0936.
`AGTAGAAG` has an E-score of -0.219.

Sample 2
Substance: PhoQ, residues 284 288 289 292 302 303 ALSMDL
Method: Sort-seq
Measured: YFP reporter
Sample: E. coli
Notes: PhoQ-PhoP variant library
With: 10 µM Mg2+
Relative to: high Mg2+ state
Reading: higher = stronger signaling
For PhoP, residues 12 14 15 18 19 NQCAL (Escherichia coli, UniProt P23836): fold induction read 6.21.
PhoP, residues 12 14 15 18 19 TQAML (Escherichia coli, UniProt P23836) — fold induction: 1.57.
For PhoP, residues 12 14 15 18 19 LHTVL (Escherichia coli, UniProt P23836): fold induction read 2.08.

Sample 3
Target: CCND2, cyclin fold, Cln2 fusion (human)
Method: yeast growth competition, sequencing
Sample: yeast
Notes: weak parent motif
Relative to: not given
Reading: higher = stronger binding
Starting sequence: RB1 docking peptide (human); PKPLKKLRFDIEG
For `L7A`, “normalised enrichment score” read 0.425.
`K5W` — result for “normalised enrichment score”: 0.115.
For `K6P`, “normalised enrichment score” read 0.179.
For `I11Q`, “normalised enrichment score” read -0.0916.
`G13Y` — result for “normalised enrichment score”: -0.68.

Sample 4
Target: Transcriptional repressor CTCF (CTCF, Homo sapiens, UniProt P49711, residues 1-727, full length assumed)
Method: protein-binding microarray
Molecule type: double-stranded DNA, one strand shown
Sample: in vitro
Tested at: not given
Notes: k-mer, scored over probes, only values ≥0.25
Reading: higher = stronger binding
Construct (chain): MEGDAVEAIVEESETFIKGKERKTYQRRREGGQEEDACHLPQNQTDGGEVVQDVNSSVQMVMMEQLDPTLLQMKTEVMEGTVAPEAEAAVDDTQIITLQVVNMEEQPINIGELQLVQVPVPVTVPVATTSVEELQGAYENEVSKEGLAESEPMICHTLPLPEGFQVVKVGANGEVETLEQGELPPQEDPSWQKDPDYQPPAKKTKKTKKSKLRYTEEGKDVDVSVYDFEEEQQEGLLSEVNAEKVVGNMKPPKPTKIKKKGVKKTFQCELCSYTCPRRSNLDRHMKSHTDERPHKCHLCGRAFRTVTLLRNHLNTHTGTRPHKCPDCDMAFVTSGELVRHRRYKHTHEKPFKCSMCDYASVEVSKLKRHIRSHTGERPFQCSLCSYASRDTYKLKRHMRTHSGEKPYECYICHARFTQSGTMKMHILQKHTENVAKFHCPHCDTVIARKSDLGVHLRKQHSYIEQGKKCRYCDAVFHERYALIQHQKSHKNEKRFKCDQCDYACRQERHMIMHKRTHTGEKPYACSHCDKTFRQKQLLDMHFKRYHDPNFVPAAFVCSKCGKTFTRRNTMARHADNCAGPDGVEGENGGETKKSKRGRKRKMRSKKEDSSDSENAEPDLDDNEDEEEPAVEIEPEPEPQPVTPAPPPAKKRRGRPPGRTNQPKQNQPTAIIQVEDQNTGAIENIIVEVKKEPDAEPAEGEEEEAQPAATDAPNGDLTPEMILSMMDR
`ATATTCTA` gave an E-score of 0.291.
With `ATTTGCGC` the E-score was 0.306.
`CACACGCG` has an E-score of 0.306.
`AATACGAA` gave an E-score of 0.265.
`AGCGCGTA` gave an E-score of 0.335.
With `CATAGTAA` the E-score was 0.281.

For quick reference, copied from above (sample 4):
`CACACGCG` has an E-score of 0.306.
With `CATAGTAA` the E-score was 0.281.
